{"data": "Published values pooled from the literature", "note": "Numbered parts are unrelated; each lists some results of a single study. Substitutions count along the parent as printed."}
{"data": "Block 1", "target": "ABI1, truncated, D143A, DHFR fusion (Arabidopsis thaliana)", "method": "DHFR PCA, deep sequencing", "sample": "yeast", "setting": "methotrexate growth selection, single substitutions", "with": "(+)-ABA 0.032 µM", "reference": "wild-type fitted maximum", "reading": "higher = stronger binding", "starting sequence": "PYL1, truncated, DHFR fusion (Arabidopsis thaliana); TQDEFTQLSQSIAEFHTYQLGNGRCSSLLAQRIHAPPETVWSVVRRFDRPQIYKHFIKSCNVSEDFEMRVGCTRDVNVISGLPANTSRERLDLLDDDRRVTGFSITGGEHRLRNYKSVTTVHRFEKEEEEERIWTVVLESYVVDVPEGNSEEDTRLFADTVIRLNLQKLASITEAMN; partner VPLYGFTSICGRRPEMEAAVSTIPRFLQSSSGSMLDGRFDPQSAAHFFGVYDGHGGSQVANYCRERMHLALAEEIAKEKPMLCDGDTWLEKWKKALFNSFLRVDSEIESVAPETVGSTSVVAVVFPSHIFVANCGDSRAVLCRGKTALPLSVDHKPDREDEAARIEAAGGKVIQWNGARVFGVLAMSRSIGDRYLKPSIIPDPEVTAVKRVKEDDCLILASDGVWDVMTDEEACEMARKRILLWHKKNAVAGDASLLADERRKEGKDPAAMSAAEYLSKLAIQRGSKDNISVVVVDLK"}
{"Change": "L164E", "relative binding score": "2.2%"}
{"Change": "A35G", "relative binding score": "-0.962%"}
{"Change": "G21A", "relative binding score": "21.7%"}
{"Change": "L28K", "relative binding score": "2.07%"}
{"Change": "L112V", "relative binding score": "-3.87%"}
{"Change": "T120A", "relative binding score": "-1.73%"}
{"Change": "G102D", "relative binding score": "-1.44%"}
{"Change": "P83M", "relative binding score": "9.33%"}
{"Change": "P146F", "relative binding score": "-3.67%"}
{"Change": "T86K", "relative binding score": "9.88%"}
{"Change": "Y115P", "relative binding score": "-3.68%"}
{"Change": "G108H", "relative binding score": "-9.11%"}
{"Change": "E147C", "relative binding score": "6.79%"}
{"Change": "V70M", "relative binding score": "2.51%"}
{"Change": "F66C", "relative binding score": "6.59%"}
{"Change": "L91Y", "relative binding score": "-5.97%"}
{"Change": "L112N", "relative binding score": "-4.64%"}
{"Change": "E125C", "relative binding score": "39.9%"}
{"data": "Block 2", "target": "Histone acetyltransferase KAT6A, winged helix 1, GST fusion (KAT6A, Homo sapiens, UniProt Q92794, residues 1-85)", "method": "protein binding microarray", "molecule type": "double-stranded DNA, one strand shown", "sample": "in vitro", "concentration": "not given", "setting": "8-mer, flanks averaged, mean of 2 arrays, mostly near background", "reference": "not given", "reading": "higher = stronger binding", "Target sequence (chain)": "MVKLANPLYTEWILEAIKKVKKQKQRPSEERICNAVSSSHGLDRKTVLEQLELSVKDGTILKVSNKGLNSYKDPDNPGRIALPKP"}
{"Sequence": "ATGGTAAA", "E-score": -0.204}
{"Sequence": "ACATATGA", "E-score": -0.14}
{"Sequence": "CGCTACCA", "E-score": 0.239}
{"Sequence": "CAGGGAGG", "E-score": -0.143}
{"Sequence": "AGCAGCCA", "E-score": -0.222}
{"Sequence": "AGGTGAAG", "E-score": -0.21}
{"Sequence": "TCGCGAGA", "E-score": 0.205}
{"Sequence": "CGGGCACG", "E-score": 0.261}
{"Sequence": "ATACGGTA", "E-score": 0.222}
{"Sequence": "TAGTCTCA", "E-score": -0.182}
{"Sequence": "AGTAGGAG", "E-score": -0.266}
{"Sequence": "CGAGAAGC", "E-score": 0.143}
{"Sequence": "AATGCCTA", "E-score": -0.114}
{"Sequence": "ATGACGCA", "E-score": 0.0528}
{"Sequence": "ACACCATC", "E-score": -0.232}
{"Sequence": "GGACTCGA", "E-score": 0.0645}
{"Sequence": "AGTGTGAT", "E-score": -0.133}
{"Sequence": "ATTCCCCG", "E-score": 0.182}
{"Sequence": "CAATCTGA", "E-score": -0.125}
{"Sequence": "ACTAAATG", "E-score": -0.151}
{"Sequence": "AGGGGGAT", "E-score": -0.134}
{"Sequence": "CCGCGCCA", "E-score": 0.307}
{"data": "Block 3", "target": "CCNB2, cyclin fold, Cln2 fusion (human)", "method": "yeast growth competition, sequencing", "sample": "yeast", "setting": "weak parent motif", "reference": "not given", "reading": "higher = stronger binding", "starting sequence": "RB1 docking peptide (human); PKPLKKLRFDIEG; partner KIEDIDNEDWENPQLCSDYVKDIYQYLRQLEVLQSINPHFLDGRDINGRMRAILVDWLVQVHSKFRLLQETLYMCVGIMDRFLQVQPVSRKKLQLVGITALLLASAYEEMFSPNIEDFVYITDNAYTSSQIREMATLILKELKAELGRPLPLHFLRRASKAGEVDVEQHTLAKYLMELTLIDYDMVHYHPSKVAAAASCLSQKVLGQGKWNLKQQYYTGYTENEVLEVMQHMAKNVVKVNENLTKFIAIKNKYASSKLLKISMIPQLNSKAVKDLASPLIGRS"}
{"Change": "E12A", "normalised enrichment score": 0.29}
{"Change": "I11D", "normalised enrichment score": 0.129}
{"Change": "L7H", "normalised enrichment score": 0.0876}
{"Change": "E12S", "normalised enrichment score": 0.125}
{"Change": "R8W", "normalised enrichment score": 0.0868}
{"Change": "D10F", "normalised enrichment score": 0.256}
{"Change": "G13M", "normalised enrichment score": 0.0795}
{"Change": "G13K", "normalised enrichment score": 0.655}
{"Change": "D10T", "normalised enrichment score": 0.225}
{"Change": "L4V", "normalised enrichment score": 0.485}
{"Change": "G13W", "normalised enrichment score": 0.233}
{"Change": "K5M", "normalised enrichment score": 0.0812}
{"Change": "P1C", "normalised enrichment score": 1.27}
{"Change": "L4F", "normalised enrichment score": 0.399}
{"Change": "D10Q", "normalised enrichment score": 0.214}
{"Change": "G13V", "normalised enrichment score": 0.203}
{"Change": "F9I", "normalised enrichment score": -0.08}
{"Change": "F9T", "normalised enrichment score": 0.156}
{"data": "Block 4", "target": "Protein C-ets-1 (ETS1, Homo sapiens, UniProt P14921, residues 1-441, K379A, full length assumed)", "method": "protein-binding microarray", "molecule type": "double-stranded DNA, one strand shown", "sample": "in vitro", "concentration": "not given", "setting": "k-mer, scored over probes, only values ≥0.25", "reading": "higher = stronger binding", "Construct (chain)": "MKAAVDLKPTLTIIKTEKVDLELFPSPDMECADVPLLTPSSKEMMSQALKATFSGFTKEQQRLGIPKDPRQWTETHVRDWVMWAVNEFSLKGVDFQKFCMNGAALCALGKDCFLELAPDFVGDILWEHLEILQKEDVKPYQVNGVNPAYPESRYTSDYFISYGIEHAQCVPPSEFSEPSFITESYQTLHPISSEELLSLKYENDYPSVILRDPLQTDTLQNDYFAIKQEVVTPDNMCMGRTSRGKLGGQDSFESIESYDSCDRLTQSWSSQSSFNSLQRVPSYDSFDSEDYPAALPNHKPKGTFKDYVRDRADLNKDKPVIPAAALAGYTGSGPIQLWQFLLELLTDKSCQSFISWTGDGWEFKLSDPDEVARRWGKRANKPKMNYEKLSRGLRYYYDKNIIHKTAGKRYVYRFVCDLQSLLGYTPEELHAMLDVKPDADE"}
{"Sequence": "CCCCGGGA", "E-score": 0.377}
{"Sequence": "ATAACCGG", "E-score": 0.373}
{"Sequence": "GCCCCTCC", "E-score": 0.406}
{"Sequence": "ACGACGGA", "E-score": 0.299}
{"Sequence": "CCGGAGTA", "E-score": 0.29}
{"Sequence": "TTGGCAAA", "E-score": 0.26}
{"Sequence": "GGACCGGA", "E-score": 0.375}
{"Sequence": "CGGTCAAC", "E-score": 0.251}
{"Sequence": "ACCGGATC", "E-score": 0.313}
{"Sequence": "ATCCCGGA", "E-score": 0.338}
{"Sequence": "CGGCGCCG", "E-score": 0.329}
{"Sequence": "AACAACAA", "E-score": 0.264}
{"Sequence": "ACCAACAT", "E-score": 0.254}
{"Sequence": "CGACAACA", "E-score": 0.278}
{"Sequence": "ATCCGTTG", "E-score": 0.279}
{"data": "Block 5", "target": "RNA binding protein fox-1 homolog 2, RRM domain, GST-SBP tag (RBFOX2, Homo sapiens, UniProt O43251-10, residues 100-194)", "method": "RNA Bind-n-Seq", "molecule type": "RNA", "sample": "in vitro", "concentration": "365 nM", "setting": "natural RNA segment, single round, ends assumed", "reference": "no-protein control", "reading": "higher = stronger binding", "constant ends, left off below": "GGGAGUUCUACAGUCCGACGAUC … UGGAAUUCUCGGGUGCCAA", "Target sequence (chain)": "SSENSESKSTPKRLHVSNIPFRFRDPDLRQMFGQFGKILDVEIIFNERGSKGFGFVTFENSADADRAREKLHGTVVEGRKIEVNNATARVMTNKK"}
{"Sequence": "ACAUCUAAAAACUUUGCUAGGAGACUAAGAACCUUUGGAGAGAUAGAUAUAAGUACGGUCAAAAAACAAAACUGUGGGACUUACAUUUAUUUUCUAUAGUAAUCUGUUGU", "RBNS enrichment (R)": 0.629}
{"Sequence": "UCUGCUUUAAUUUCAUGAAAAGAUUAUGAUCUCAGAAAUUGUAUCUUAGUUGGUAUCAACCAAAUGGAGUGACUUAGUGUACAUGAAAGCGUAAAGAGGAUGUGUGGCAU", "RBNS enrichment (R)": 0.465}
{"Sequence": "ACUGCCAAAAAGCUUCCUCUGAUGUCAAAUCAGGAUGUAUUACCGAAACUGAUUCCAAGGACAUCCACAUAGCUGAGCCAAGAUGCUCCAGGCCAGUGGCAGGUGGACUG", "RBNS enrichment (R)": 0.516}
{"Sequence": "CAUAGUUUGGGAGAUGGACAUUAAAGGGGCUAGAGGCCUAUAUGUGGCUGGUGUUGGUGACCCUGAUGUAUGGCAGAGCCCUUGGGGAGAAGAGACCCUGAGGGAAGGGC", "RBNS enrichment (R)": 1.29}
{"Sequence": "AUCUUUGUUGUUUUUGUAUUUAUUUGUAUGUUCAGAUCCAAAGGAUCCGUUGUAAAAAUAUAUAUGUGAAUAUAUAUACAUAACCAGUGCAAUCAGCUUUCAUUUCCUUU", "RBNS enrichment (R)": 0.605}
{"Sequence": "CAUGCUUUUAUCCUGAGAAACCUGGACCCUUAGGCUCUGACUAACAAAGACAGUUCAGCUCCAGACACUGAACUUGGAAUCCUUUGUCUUUGGAUUAAAAGUCAUAAACU", "RBNS enrichment (R)": 0.359}
{"Sequence": "GAGCCAAGGACCACAGAGCCUCAGCCAGCCCAGGAUCCGUCCUCAUUUUAUUGGUGAUGAUGAAUGGGAAUGAAAUCAGGGGGCUGUCUACUAGAGCCUGGAAUAAAUAU", "RBNS enrichment (R)": 0.407}
{"Sequence": "CCCCUUCCCGUCUGCCCUGUGUCCUCACUGCGUGUGGGUAUGACCUCUGCCUGGUGGCUGGUGUAUCCCAACUGGGCAAGAGAUGGCAGAGGGUCCCCCUUGUGGGUGCG", "RBNS enrichment (R)": 0.311}
